Literature values, collected from citations in different studies.
Protocols differ between the studies behind these lines.
Sequence of UniProt P28472 (whole entry, looked up): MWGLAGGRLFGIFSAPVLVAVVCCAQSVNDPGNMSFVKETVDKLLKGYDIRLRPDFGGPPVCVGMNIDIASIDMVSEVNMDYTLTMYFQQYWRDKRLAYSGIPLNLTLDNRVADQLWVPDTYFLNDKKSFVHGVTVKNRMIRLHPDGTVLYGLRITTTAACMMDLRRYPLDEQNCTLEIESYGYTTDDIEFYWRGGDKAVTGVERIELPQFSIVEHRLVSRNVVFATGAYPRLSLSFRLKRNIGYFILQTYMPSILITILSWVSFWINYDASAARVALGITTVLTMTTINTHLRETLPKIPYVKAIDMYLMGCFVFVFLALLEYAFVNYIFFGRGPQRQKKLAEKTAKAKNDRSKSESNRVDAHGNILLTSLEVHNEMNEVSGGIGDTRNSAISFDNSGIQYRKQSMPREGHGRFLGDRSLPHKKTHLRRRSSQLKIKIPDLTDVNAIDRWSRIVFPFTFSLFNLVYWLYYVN
Sequence of UniProt Q9UEE5 (whole entry, looked up): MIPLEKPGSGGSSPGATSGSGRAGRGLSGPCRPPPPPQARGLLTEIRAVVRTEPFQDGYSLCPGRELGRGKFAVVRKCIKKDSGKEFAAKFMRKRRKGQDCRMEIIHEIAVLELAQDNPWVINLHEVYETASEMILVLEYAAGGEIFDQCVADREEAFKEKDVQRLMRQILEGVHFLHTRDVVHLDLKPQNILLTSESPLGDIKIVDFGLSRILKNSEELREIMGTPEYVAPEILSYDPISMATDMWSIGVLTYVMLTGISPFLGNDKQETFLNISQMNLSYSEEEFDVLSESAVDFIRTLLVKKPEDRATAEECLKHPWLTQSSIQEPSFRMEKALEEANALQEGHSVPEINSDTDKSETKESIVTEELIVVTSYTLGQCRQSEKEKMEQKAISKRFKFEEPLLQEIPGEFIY
Sequence of UniProt P14867 (whole entry, looked up): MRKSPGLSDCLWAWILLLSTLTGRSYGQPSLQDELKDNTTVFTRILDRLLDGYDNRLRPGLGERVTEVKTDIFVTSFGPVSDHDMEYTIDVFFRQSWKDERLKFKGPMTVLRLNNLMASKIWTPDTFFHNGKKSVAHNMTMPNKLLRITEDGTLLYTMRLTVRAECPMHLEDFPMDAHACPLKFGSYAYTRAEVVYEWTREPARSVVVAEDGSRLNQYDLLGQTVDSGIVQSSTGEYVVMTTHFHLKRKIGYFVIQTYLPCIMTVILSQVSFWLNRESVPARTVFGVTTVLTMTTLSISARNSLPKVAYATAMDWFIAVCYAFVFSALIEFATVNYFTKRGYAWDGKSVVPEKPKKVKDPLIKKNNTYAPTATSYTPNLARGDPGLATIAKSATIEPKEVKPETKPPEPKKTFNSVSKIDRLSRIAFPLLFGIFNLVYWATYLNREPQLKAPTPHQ
Sequence of UniProt Q99814 (whole entry, looked up): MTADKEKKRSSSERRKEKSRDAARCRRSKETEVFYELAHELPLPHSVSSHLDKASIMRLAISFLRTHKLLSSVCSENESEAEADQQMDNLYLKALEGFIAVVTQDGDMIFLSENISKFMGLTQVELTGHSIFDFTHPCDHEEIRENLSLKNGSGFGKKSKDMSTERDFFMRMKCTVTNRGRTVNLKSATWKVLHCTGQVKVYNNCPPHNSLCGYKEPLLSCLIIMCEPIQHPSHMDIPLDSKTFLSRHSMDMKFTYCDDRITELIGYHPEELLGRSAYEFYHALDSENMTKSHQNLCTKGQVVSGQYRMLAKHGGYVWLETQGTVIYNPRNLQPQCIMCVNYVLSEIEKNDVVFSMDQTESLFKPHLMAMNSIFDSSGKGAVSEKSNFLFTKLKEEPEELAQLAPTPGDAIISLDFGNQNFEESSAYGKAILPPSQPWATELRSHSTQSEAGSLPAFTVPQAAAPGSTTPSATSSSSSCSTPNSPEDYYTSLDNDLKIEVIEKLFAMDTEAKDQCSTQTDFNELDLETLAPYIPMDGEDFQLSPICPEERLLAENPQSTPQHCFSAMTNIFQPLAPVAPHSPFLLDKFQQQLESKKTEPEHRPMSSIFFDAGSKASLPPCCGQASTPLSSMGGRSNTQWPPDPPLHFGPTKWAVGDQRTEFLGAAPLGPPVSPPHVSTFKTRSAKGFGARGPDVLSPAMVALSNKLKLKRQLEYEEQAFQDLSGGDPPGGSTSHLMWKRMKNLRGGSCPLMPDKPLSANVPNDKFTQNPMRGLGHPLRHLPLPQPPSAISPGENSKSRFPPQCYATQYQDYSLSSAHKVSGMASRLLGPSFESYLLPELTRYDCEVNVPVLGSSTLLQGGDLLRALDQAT
Sequence of UniProt P20789 (whole entry, looked up): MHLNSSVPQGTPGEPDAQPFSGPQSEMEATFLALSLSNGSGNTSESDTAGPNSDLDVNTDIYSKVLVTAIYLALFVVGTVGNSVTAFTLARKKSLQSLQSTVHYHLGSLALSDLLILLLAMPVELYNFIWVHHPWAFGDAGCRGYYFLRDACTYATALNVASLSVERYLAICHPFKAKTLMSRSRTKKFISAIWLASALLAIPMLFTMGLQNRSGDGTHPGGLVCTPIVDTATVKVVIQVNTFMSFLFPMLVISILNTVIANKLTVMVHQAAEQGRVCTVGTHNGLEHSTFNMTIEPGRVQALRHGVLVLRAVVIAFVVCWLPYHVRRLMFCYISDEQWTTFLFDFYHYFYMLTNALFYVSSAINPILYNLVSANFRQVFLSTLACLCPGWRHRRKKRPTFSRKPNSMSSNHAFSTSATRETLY
Sequence of UniProt P42338 (whole entry, looked up): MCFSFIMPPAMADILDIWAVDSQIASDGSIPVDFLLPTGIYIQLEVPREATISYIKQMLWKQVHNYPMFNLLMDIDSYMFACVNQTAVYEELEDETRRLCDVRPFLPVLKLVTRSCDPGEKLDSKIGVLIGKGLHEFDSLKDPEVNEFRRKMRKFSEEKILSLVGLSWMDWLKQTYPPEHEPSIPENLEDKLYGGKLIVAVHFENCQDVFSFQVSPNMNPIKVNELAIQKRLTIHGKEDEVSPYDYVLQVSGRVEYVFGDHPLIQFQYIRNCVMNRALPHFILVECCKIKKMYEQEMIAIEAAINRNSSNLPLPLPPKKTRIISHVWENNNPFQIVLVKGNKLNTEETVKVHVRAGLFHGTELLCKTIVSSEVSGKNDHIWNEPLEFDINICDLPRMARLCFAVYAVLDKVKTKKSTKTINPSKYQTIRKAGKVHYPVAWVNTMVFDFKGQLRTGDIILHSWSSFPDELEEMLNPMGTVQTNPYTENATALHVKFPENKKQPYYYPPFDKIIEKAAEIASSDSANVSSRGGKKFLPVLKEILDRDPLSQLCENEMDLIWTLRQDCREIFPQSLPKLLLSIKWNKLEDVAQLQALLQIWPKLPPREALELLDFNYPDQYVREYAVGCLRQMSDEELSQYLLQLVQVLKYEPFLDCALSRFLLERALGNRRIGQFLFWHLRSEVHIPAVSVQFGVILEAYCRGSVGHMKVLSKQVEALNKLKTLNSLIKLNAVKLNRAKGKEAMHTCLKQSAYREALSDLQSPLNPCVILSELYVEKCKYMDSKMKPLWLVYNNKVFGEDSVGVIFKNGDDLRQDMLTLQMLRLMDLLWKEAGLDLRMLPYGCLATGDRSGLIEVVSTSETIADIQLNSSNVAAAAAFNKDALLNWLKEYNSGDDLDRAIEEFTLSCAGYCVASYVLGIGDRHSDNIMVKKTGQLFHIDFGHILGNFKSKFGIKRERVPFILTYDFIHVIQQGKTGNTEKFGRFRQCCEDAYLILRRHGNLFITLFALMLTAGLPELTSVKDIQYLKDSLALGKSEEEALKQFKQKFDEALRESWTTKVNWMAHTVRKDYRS
Sequence of UniProt Q9HC98 (whole entry, looked up): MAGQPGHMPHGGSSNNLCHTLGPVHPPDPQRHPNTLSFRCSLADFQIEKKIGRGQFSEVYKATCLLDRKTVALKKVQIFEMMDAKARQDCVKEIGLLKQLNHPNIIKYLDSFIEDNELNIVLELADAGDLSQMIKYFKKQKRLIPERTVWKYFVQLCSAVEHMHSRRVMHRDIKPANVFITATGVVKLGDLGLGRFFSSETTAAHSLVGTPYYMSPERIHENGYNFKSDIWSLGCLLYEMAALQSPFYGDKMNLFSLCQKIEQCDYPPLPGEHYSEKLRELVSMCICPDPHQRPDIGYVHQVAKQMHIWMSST
Sequence of UniProt P35408 (whole entry, looked up): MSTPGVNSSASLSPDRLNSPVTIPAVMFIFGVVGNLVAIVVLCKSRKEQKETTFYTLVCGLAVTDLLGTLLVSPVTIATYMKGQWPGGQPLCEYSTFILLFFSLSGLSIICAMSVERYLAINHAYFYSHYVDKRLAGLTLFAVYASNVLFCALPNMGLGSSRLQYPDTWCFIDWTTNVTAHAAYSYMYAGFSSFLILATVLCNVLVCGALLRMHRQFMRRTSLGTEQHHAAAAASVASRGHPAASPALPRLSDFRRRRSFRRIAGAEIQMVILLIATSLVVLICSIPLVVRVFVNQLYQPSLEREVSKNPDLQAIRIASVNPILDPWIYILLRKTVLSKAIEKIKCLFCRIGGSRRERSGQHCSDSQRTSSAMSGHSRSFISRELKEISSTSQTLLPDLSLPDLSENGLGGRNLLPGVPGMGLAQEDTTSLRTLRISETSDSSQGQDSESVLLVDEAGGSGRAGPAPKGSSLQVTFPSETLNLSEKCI

The remaining binding of `Cc1nc(NC(=O)N2CCC[C@H]2C(N)=O)sc1-c1ccnc(C(C)(C)C(F)(F)F)c1` is reported as 2.9% (PIK3CB (Homo sapiens, UniProt P42338); KinomeScan competition binding; 10 µM).
With `CCCCC[C@H](O)/C=C/[C@H]1[C@H](O)CC(=O)[C@@H]1C/C=C\CCCC(=O)O` the Hill coefficient was 0.9 (PTGER4 (Homo sapiens, UniProt P35408); historical reference value).
`CC1(C)S[C@@H]2[C@H](NC(=O)[C@H](N)c3ccccc3)C(=O)N2[C@H]1C(=O)O` gave an MIC of > 16 µg/mL (Klebsiella pneumoniae; clinical isolate RKI-No_107/15).
The Km of `Nc1ccn([C@H]2C[C@H](O)[C@@H](CO)O2)c(=O)n1` is reported as 3.9 µM (cytidine deaminase (human); substrate; concentration not given).
`O=C(Nc1ccccc1O)c1ccc(S(=O)(=O)c2ccc(Cl)cc2)cc1` gave an IC50 of 1350 nM (Plasmodium falciparum; whole cell extended time; 3D7; 72 h).
For `CCCCCN1C[C@H](O)[C@@H](O)[C@H](O)[C@@H]1CO`, inhibition read “inactive” (sucrase; concentration not given).
The IC50 of `Cc1[nH]c(C)c(-c2ccc(-c3ccc(F)cc3)cc2)c(=O)c1Br` is reported as 1070 nM (Plasmodium falciparum; whole cell extended time; 3D7; 72 h).
For `NCCc1ccc(O)c(O)c1`, activity read “inactive” (uncharacterized protein (Ixodes scapularis, UniProt A0A0N9E2I2); inhibitor; concentration not given).
`N=C1NC(=O)C2(CCc3ccccc32)C(=O)N1` (stereo not shown) gave an inhibition of 63% (GABA-A receptor alpha-1/beta-3, with gamma-2 subunit (GABRA1/GABRB3, Homo sapiens, UniProt P14867+P28472); reversal, anesthetic-enhanced desensitization; concentration not given, α1β3γ2 receptor; higher is stronger).
`O=[N+]([O-])c1cc(C(F)(F)F)ccc1NN1CCOCC1` has a binding enthalpy of -8.1 kcal/mol (Endothelial PAS domain-containing protein 1, PAS-B domain (EPAS1, Homo sapiens, UniProt Q99814); isothermal titration calorimetry; concentration not given, <0.1% DMSO).
With `Nc1cc(C(F)(F)F)c(-c2nc(N3CCOCC3)nc(N3CCOCC3)n2)cn1` the remaining activity was 100% (NEK6 (Homo sapiens, UniProt Q9HC98); enzyme activity; 10 µM; relative to: untreated).
`O=C(Nc1nc2ccccc2[nH]1)c1ccccc1` has an activity of 0.5 µM (ATAD5; PubChem AID 504466).
With `CNC(C)C1CCC(N)C(OC2C(N)CC(N)C(OC3OCC(C)(O)C(NC)C3O)C2O)O1` (stereo not shown) the MIC was > 8 µg/mL (Klebsiella pneumoniae; clinical isolate RKI-No_94/15).
For `Cc1cc(NC(=O)c2cccc(NC(=O)/C=C/CN(C)C)c2)ccc1Nc1nccc(-c2cccnc2)n1`, the remaining activity was 24% (STK17A (Homo sapiens, UniProt Q9UEE5); enzyme activity, inhibitor; 1 µM; relative to: vehicle).
`CCC(=O)O[C@]1(C(=O)SCF)[C@H](C)C[C@H]2[C@@H]3C[C@H](F)C4=CC(=O)C=C[C@]4(C)[C@@]3(F)[C@@H](O)C[C@@]21C` has a receptor occupancy of 35.3% (Nr3c1 (Rattus norvegicus, UniProt P06536); rat, spleen; intravenous, 90 nmol/kg, 2.017 (unit not given)).
`COc1cccc(OC)c1-c1cc(C(=O)NC2(C(=O)O)CCCCC2)nn1-c1ccc(F)cc1` has a Ke of > 10 µM (Ntsr1 (Rattus norvegicus, UniProt P20789); antagonist, FLIPR calcium).

Some of these lines once more:
`CC1(C)S[C@@H]2[C@H](NC(=O)[C@H](N)c3ccccc3)C(=O)N2[C@H]1C(=O)O` gave an MIC of > 16 µg/mL (Klebsiella pneumoniae; clinical isolate RKI-No_107/15).
